Assay results from different studies.
Every numbered part comes from another study and shows a few of its results, in no order. “And” joins repeats or separate records; there may be more than shown.
Sequence of UniProt O43353 (whole entry, looked up): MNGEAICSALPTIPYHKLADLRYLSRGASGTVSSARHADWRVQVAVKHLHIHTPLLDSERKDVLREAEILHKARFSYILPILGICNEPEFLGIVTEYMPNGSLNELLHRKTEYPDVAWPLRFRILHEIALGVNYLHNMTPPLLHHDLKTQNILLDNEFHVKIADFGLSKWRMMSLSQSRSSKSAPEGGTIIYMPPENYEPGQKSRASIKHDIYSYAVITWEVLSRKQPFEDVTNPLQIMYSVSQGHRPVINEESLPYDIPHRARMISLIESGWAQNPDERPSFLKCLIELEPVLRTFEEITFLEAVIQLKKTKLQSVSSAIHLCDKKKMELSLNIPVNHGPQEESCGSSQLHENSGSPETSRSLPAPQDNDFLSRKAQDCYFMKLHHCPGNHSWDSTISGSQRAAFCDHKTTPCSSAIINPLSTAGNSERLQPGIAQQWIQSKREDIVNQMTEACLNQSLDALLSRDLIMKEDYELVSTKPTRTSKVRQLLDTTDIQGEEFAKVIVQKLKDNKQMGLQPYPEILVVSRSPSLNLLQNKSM
Sequence of UniProt Q9NWZ3 (whole entry, looked up): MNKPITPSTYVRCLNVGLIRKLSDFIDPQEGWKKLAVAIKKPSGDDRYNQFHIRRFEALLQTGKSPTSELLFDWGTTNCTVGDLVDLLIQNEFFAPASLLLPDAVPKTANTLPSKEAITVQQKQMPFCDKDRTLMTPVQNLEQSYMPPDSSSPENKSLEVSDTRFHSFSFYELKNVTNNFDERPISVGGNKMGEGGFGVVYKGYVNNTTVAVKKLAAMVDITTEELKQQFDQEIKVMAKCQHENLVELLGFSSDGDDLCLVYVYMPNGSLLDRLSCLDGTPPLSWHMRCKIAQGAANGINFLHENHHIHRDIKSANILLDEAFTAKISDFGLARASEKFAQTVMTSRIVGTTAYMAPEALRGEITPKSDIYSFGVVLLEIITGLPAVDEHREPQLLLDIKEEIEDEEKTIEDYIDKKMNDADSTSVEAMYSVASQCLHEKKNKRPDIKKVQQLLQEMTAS
Sequence of UniProt P05771 (whole entry, looked up): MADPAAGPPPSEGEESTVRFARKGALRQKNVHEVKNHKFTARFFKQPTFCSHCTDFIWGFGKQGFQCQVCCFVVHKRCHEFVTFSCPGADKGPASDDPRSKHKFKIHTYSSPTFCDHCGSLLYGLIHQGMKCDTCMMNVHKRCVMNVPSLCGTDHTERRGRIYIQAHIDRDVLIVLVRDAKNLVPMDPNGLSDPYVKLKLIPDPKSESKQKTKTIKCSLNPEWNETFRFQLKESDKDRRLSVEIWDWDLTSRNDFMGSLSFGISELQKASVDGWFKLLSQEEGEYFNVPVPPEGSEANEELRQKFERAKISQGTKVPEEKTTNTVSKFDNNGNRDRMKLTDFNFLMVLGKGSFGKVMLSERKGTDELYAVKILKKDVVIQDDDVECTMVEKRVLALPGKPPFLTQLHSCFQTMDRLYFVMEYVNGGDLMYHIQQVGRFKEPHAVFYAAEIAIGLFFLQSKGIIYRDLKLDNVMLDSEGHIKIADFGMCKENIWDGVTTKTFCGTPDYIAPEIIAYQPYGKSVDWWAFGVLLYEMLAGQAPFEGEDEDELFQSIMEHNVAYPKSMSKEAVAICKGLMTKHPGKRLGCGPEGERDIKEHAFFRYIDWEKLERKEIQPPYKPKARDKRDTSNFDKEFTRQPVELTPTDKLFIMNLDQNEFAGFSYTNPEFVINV
Sequence of UniProt P50613 (whole entry, looked up): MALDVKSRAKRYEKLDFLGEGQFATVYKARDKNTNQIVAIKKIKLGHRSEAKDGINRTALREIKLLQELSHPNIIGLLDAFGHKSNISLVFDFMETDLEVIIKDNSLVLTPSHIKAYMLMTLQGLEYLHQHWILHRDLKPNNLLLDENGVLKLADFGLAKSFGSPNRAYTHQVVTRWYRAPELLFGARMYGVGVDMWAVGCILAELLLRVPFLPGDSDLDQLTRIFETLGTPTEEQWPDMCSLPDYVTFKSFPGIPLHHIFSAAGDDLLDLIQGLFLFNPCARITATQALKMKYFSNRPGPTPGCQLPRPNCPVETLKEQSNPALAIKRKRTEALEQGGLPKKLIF

Study 1
Compound: C[C@@H]1CN(c2ccc(-c3cc(C(=O)NCCOCCOCCOCCOCCNC(=O)Cn4cc(-c5[nH]cc(C(=O)N[C@@H](CC(N)=O)c6ccc(F)c(Cl)c6)c5-c5ccc(Cl)cc5F)cn4)ccc3F)cc2NC(=O)c2c[nH]c(=O)cc2C(F)(F)F)C[C@H](C)N1C
Read-out: thermal unfolding
Technique: differential scanning fluorimetry
Tested at: 5.5 µM
Direction: higher = more unfolded
WDR5: WD repeat-containing protein 5 (WDR5, Homo sapiens, UniProt P61964)
DCAF1: DDB1- and CUL4-associated factor 1 (DCAF1, Homo sapiens, UniProt Q9Y4B6)
Sequence of UniProt Q9Y4B6 (whole entry, looked up): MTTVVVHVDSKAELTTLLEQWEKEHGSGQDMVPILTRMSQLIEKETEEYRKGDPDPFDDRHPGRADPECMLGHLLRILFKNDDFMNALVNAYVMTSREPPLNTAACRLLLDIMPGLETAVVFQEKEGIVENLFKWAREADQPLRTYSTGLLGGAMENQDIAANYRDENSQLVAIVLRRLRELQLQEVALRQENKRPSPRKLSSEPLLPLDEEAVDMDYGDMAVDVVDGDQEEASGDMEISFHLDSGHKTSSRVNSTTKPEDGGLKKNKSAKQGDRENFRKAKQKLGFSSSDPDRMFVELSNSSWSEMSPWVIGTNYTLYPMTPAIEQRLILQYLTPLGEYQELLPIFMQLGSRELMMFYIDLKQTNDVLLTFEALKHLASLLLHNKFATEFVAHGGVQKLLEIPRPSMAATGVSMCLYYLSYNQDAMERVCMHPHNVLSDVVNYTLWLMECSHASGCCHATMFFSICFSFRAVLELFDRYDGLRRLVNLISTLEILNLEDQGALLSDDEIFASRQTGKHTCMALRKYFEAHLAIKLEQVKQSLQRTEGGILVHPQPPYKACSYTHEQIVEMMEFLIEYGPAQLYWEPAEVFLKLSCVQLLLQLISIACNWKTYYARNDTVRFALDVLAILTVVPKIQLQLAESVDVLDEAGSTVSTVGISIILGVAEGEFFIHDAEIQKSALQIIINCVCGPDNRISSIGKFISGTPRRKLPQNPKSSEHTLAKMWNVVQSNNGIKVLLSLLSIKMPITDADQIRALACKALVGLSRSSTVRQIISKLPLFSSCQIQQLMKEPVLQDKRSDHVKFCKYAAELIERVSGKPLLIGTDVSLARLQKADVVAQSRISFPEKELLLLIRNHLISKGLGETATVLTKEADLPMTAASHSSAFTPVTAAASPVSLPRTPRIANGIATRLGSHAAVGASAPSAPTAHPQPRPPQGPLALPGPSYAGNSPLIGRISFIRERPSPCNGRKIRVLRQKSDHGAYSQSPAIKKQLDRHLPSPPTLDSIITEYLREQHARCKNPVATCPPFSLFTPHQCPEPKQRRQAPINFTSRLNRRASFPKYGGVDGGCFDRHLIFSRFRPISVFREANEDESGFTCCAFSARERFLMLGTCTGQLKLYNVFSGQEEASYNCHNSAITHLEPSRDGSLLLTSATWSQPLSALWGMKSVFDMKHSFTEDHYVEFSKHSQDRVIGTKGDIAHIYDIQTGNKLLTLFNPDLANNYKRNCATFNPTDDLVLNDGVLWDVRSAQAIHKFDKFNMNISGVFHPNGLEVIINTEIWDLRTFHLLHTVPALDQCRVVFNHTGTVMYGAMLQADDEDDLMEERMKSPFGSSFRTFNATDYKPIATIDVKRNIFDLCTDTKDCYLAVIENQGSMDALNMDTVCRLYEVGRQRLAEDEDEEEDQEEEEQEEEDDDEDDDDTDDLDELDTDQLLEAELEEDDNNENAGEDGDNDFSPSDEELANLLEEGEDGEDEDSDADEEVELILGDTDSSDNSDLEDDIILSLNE
For WDR5; 79.81 °C: “SYPRO Orange fluorescence” read 22700 a.u.
For WDR5; 52.41 °C: “SYPRO Orange fluorescence” read 14400 a.u.
It gave 14300 a.u. for “SYPRO Orange fluorescence” (WDR5; 34.8 °C).
The “SYPRO Orange fluorescence” was 14300 a.u. (WDR5; 46.4 °C).
DCAF1; 58.61 °C — “SYPRO Orange fluorescence”: 31400 a.u.
WDR5; 51.8 °C — “SYPRO Orange fluorescence”: 14400 a.u.
The “SYPRO Orange fluorescence” was 15000 a.u. (WDR5; 31 °C).
It gave 14900 a.u. for “SYPRO Orange fluorescence” (WDR5; 29 °C).
The “SYPRO Orange fluorescence” was 9600 a.u. (DCAF1; 37.8 °C).
The “SYPRO Orange fluorescence” was 14800 a.u. (WDR5; 25.2 °C).
The “SYPRO Orange fluorescence” was 53400 a.u. (DCAF1; 71.01 °C).

Study 2
Structure (SMILES): CN(C1COC1)C(C)(C)/C=C(\C#N)C(=O)N1CCC[C@H]1Cn1nc(-c2ccc(Oc3ccccc3)cc2F)c2c(N)ncnc21
Read-out: kinase activity
It gave 5% for inhibition (Protein kinase C beta type, isoform beta-II (PRKCB, Homo sapiens, UniProt P05771); 0.1 µM).
It gave -1% for inhibition (MARK2 (Homo sapiens, UniProt Q7KZI7); 0.1 µM).
The inhibition was -4% (STK38L (Homo sapiens, UniProt Q9Y2H1); 1 µM).
It gave 0% for inhibition (MAP4K2 (Homo sapiens, UniProt Q12851); 0.1 µM).
It gave -1% for inhibition (MAP4K4 (Homo sapiens, UniProt O95819); 0.1 µM).
The inhibition was 0% (CDK7 (Homo sapiens, UniProt P50613); 0.1 µM).
The inhibition was 4% (NEK1 (Homo sapiens, UniProt Q96PY6); 1 µM).
The inhibition was -4% (IRAK4 (Homo sapiens, UniProt Q9NWZ3); 0.1 µM).
For NEK9 (Homo sapiens, UniProt Q8TD19); 1 µM: inhibition read 1%.
For RIPK2 (Homo sapiens, UniProt O43353); 1 µM: inhibition read 72%.
It gave 98% for inhibition (BTK (Homo sapiens, UniProt Q06187); 1 µM).
ABL1 (Homo sapiens, UniProt P00519); 1 µM — inhibition: -1%.

Study 3
SMILES: COCC1CC2C(CCC3C(O)CCC32)c2ccc(O)cc21 (stereo not shown)
The “log2 fold change” was -0.25 (A549; microarray, refers to: SPC25; 25 µM; reference: untreated).
The “log2 fold change” was 0.38 (A549; microarray, refers to: RFC3; 25 µM; reference: untreated).
It gave 5.03 for “log2 fold change” (PANC-1; DNA microarray, refers to: ADAMTS8 mRNA; 100 µM; reference: control).
SK-OV-3; DNA microarray, refers to: CCL1; 100 µM; reference: untreated — “log2 fold change”: 2.41.
It gave 8.43 for “log2 fold change” (PANC-1; microarray, refers to: CCL11; 100 µM; reference: untreated).
The “log2 fold change” was 0.524 (PANC-1; microarray, refers to: AURKA; 100 µM; reference: untreated).
The “log2 fold change” was 3.59 (PANC-1; DNA microarray, refers to: CCL22 mRNA; 100 µM; reference: control).
The “log2 fold change” was 0.763 (PANC-1; microarray, refers to: RFC3; 25 µM; reference: untreated).
It gave 4.84 for “log2 fold change” (SK-OV-3; DNA microarray, refers to: ADAMTS8; 25 µM; reference: untreated).
The “log2 fold change” was 2.83 (PANC-1; DNA microarray, refers to: CCL1 mRNA (probe A_23_P49759); 100 µM; reference: control).
A549; microarray, refers to: CDC25B; 100 µM; reference: untreated — “log2 fold change”: -0.0424.
PANC-1; DNA microarray, refers to: GINS1; 25 µM; reference: untreated cells — “log2 fold change”: 0.476.
For PANC-1; DNA microarray, refers to: KIF20A; 100 µM; reference: untreated cells: “log2 fold change” read 0.505 and 0.535 and 0.532 and 0.529 and 0.52.
The “log2 fold change” was 4.66 (PANC-1; DNA microarray, refers to: CCL22 mRNA; 25 µM; reference: control).
The “log2 fold change” was 7.68 (PANC-1; DNA microarray, refers to: C6; 25 µM; reference: untreated cells).

Study 4
SMILES: NC/C(=C\F)COc1ccc(-c2cc(=O)[nH]c(=S)n2CC(N)=O)c(Cl)c1
Read-out: enzyme activity
MPO: Myeloperoxidase (MPO, Homo sapiens, UniProt P05164)
Sequence of UniProt P05164 (whole entry, looked up): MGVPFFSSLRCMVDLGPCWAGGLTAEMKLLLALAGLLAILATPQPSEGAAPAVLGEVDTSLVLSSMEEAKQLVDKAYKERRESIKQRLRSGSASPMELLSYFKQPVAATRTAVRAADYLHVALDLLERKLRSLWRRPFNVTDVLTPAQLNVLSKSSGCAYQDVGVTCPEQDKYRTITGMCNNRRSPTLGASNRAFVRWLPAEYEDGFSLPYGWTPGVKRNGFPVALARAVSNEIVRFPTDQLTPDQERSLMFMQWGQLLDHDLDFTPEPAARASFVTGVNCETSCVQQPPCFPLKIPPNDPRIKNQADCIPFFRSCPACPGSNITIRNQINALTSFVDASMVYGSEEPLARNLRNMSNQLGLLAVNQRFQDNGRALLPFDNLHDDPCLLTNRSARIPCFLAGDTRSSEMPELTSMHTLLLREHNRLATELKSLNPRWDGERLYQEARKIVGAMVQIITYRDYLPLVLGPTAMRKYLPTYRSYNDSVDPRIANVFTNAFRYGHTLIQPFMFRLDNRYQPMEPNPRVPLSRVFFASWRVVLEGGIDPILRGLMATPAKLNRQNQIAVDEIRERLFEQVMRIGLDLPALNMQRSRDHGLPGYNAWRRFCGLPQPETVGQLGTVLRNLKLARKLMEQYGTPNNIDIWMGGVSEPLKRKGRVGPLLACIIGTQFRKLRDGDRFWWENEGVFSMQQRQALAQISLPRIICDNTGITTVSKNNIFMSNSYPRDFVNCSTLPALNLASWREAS
AOC3: Amine oxidase [copper-containing] 3 (AOC3, Homo sapiens, UniProt Q16853)
Sequence of UniProt Q16853 (whole entry, looked up): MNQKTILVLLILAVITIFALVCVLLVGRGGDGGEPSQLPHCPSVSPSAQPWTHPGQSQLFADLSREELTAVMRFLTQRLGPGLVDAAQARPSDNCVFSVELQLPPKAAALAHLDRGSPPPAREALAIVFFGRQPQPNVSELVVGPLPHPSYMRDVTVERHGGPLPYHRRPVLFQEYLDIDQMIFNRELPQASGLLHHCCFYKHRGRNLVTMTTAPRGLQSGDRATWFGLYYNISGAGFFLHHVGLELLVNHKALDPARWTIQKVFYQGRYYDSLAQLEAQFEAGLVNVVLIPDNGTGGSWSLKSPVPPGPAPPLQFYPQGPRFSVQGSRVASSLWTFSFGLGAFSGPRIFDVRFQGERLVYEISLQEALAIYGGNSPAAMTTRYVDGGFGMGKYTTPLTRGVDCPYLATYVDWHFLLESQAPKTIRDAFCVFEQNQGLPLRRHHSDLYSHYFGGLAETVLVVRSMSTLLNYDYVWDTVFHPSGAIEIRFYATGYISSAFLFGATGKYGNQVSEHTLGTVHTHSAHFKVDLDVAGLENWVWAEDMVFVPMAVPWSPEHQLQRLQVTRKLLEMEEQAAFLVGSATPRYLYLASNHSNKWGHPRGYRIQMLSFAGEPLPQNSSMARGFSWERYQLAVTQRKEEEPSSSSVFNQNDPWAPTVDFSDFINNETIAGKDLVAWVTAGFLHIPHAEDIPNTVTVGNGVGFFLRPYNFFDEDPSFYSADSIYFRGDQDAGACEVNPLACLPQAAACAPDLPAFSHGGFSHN
For MPO; inhibitor, fluorescence; 800 pM: inhibition read -7.48% and -2.67%.
AOC3; inhibitor, fluorescence; 3.333 µM — inhibition: 99.1%.
It gave -10.4% and -5.37% for inhibition (MPO; inhibitor, fluorescence; 300 pM).
It gave 82.3% for inhibition (MPO; inhibitor, fluorescence; 1.111 µM).
The inhibition was -5.88% (MPO; inhibitor, fluorescence; 4.6 nM).
It gave 97.8% for inhibition (MPO; inhibitor, fluorescence; 30 µM).
MPO; inhibitor, fluorescence; 10 µM — inhibition: 93.9%.
AOC3; Amplex Red H2O2 production; 1.111 µM — inhibition: 95% and 95.2%.

Some of these lines once more (study 3):
A549; microarray, refers to: CDC25B; 100 µM; reference: untreated — “log2 fold change”: -0.0424.
PANC-1; DNA microarray, refers to: GINS1; 25 µM; reference: untreated cells — “log2 fold change”: 0.476.
For PANC-1; DNA microarray, refers to: KIF20A; 100 µM; reference: untreated cells: “log2 fold change” read 0.505 and 0.535 and 0.532 and 0.529 and 0.52.
The “log2 fold change” was 4.66 (PANC-1; DNA microarray, refers to: CCL22 mRNA; 25 µM; reference: control).
